# Assay results of several laboratories.
# Each line is one published result; not all experiments were run side by side.
# RPS6KA4 C-terminal kinase domain: Ribosomal protein S6 kinase alpha-4, C-terminal kinase domain (RPS6KA4, Homo sapiens, UniProt O75676)
# RPS6KA4 N-terminal kinase domain: Ribosomal protein S6 kinase alpha-4, N-terminal kinase domain (RPS6KA4, Homo sapiens, UniProt O75676)
Compound,target,assay,conditions,scale,remaining binding
CNC(=O)C1CCN(c2cc(C)c(F)cc2NC(=O)c2ccc(-c3cc(O)ccc3C)c(C)c2)CC1,RPS6KA4 C-terminal kinase domain,"binding, competition with immobilised ligand",1 µM,,72%
COc1cc(Nc2nc(C)cc(-c3cnn4nc(OC)ccc34)n2)cc(C(F)(F)F)c1,RPS6KA4 N-terminal kinase domain,"binding, competition with immobilised ligand",1 µM,,96%
CNC1C[S+]2CC[S+]3CC[S+](C1)[Ru-4]321([N]=C=S)[n]2c3ccc(OC)cc3c3c4c(c5cc(F)c[n+]1c5c32)C(=O)NC4=O (stereo not drawn),RPS6KA4 C-terminal kinase domain,KinomeScan,0.1 µM,relative to: untreated,7.2%
Nc1ncc2c(n1)-c1c([nH]c3ccc(C4=CCOCC4)cc13)CCC2,RPS6KA4 N-terminal kinase domain,"binding, competition with immobilised ligand",1 µM,,100%
COc1cc(Nc2nccc(-c3cnn4nc(OC)ccc34)n2)cc(C(F)(F)F)c1,RPS6KA4 N-terminal kinase domain,"binding, competition with immobilised ligand",1 µM,,100%
Cc1ccc(-c2c(/C=C(\C#N)C(=O)NC(C)C)n(CCCO)c3ncnc(N)c23)cc1,RPS6KA4 C-terminal kinase domain,"binding, competition with immobilised ligand",1 µM,,100%
COc1c(Cl)cccc1Nc1c(-c2ccncc2C#C[C@@]2(C)CCCN2C(=O)/C=C/CN(C)C)[nH]c2c1C(=O)NCC2,RPS6KA4 N-terminal kinase domain,"binding, competition with immobilised ligand",3 µM,,100%
CCN1CCN(Cc2ccc(C(=O)Nc3ccc(C)c(NCc4cnc5[nH]ccc5c4OC)c3)cc2C(F)(F)F)CC1,RPS6KA4 N-terminal kinase domain,"binding, competition with immobilised ligand",1 µM,,70%
CC(C)=CC1OC(C)(C)C2C=C3C(=O)C(Cl)=CC(O)C3C3C(O)C4OC4C(=O)C132 (stereo not drawn),RPS6KA4 C-terminal kinase domain,"binder, KINOMEscan competition binding",10 µM,relative to: DMSO control,64%
C=CC(=O)N1CCCC(n2c(=O)c3ncccc3n(Cc3ccc(Oc4ccccc4)cc3)c2=O)C1 (stereo not drawn),RPS6KA4 C-terminal kinase domain,"binding, competition with immobilised ligand",1 µM,,80%
Cc1cnc2nc1Nc1cccc(c1)COC/C=C/COCc1cc(ccc1OCCN1CCOCC1)N2,RPS6KA4 N-terminal kinase domain,"binding, competition with immobilised ligand",0.1 µM,,88%
CCN1CCN(Cc2ccc(NC(=O)c3ccc(C)c(NC(=O)c4cncc(-c5cccs5)c4)c3)cc2C(F)(F)F)CC1,RPS6KA4 N-terminal kinase domain,"binding, competition with immobilised ligand",1 µM,,25%

# Some of these lines once more:
Compound,target,assay,conditions,scale,remaining binding
COc1cc(Nc2nc(C)cc(-c3cnn4nc(OC)ccc34)n2)cc(C(F)(F)F)c1,RPS6KA4 N-terminal kinase domain,"binding, competition with immobilised ligand",1 µM,,96%
